Measured values collected from several papers.
A part holds a random share of what one study measured.

Set 1 — technique: RNA Bind-n-Seq; form: RNA; matrix: in vitro; tested at: 365 nM; baseline: no-protein control; reading: higher = stronger binding
Target: RNA binding protein fox-1 homolog 2, RRM domain, GST-SBP tag (RBFOX2, Homo sapiens, UniProt O43251-10, residues 100-194)
Setting: natural RNA segment, single round, ends assumed
Target sequence (chain): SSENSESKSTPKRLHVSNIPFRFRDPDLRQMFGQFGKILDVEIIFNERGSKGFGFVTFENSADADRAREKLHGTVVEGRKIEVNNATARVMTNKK
Oligonucleotide | RBNS enrichment (R)
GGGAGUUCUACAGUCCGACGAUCGCAUGGUGGCUGGGUUGGUGAUAUACAGUGCAGCAGAGCUGCCCUCAGACGUGGGACUGCAGAGUCUGUUUGGAUUUGACACGGGGAGUCCUUGCUGACCUCCUGUCUCCUGGAAUUCUCGGGUGCCAA | 0.503
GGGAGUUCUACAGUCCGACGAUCUAUAUUUUUGUUCUCAGAUUCAAGAAAGCAACUACUUUGGACCAAAAGCCAUGGCCCAGAGAAUUGGGCCAGUAGAACCUAAGCCACACCUGAGGCCAGCUCUGGUCAGUUGGAAUUCUCGGGUGCCAA | 0.186
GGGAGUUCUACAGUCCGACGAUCCUGACUUUUGGCUCCCUCGCCCUAAGAGGCUCUUCCUCUCUUUUGCUCAUCCACCUUCACACCACUUGUGAGCUGACCCCCAGGAACAGCUUGGCUGUUCCACCAGAGCAUGGAAUUCUCGGGUGCCAA | 0.607
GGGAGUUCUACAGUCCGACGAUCUUCAUCAGUUCCUAACCUACUCUGCAGAACUGCAACAGUUCGCUCAGGCCAGUGUUGAAACUUUCACACCCUGAGUGACUACGGGAGAACUGCCAGCUUCCGCUUCUCUGUGGAAUUCUCGGGUGCCAA | 0.31
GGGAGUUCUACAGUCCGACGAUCUUUUAGUGACAUUUUAAAAGCAGUCAGAUUCUAUAAAUGGCAAGUAAGCCUGAAGUGAGGAUACUGCAAUUUUCGGAGAAAAGAACAGCAGCUCUUUAAGUGUUUGCAUUUGGAAUUCUCGGGUGCCAA | 0.44
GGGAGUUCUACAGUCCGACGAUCCUUUUGUAACAGGUUACGUAGACCAGCAGUGUUUAAAUCUAAAUACGUUGUGAGUCUGUUAUCUGUCCUAUCGCGUUUUUUAAAUGACUUUUUAUUCUUUAUCAUAGCUAUGGAAUUCUCGGGUGCCAA | 0.329
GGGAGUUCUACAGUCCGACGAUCCUGUGUCCUUUGCGUUCCUCGUUUAAGCAAAAGAAGUUAGUAGCUAAUUCUAUCACGAAUGUUCUUGUCUGUGUACAGUUUUUAGAACAUUACAAAGGAUUUGUUUGCUUUGGAAUUCUCGGGUGCCAA | 0.257
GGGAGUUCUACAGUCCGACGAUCAUGGGACUUUAAAAGUAAUUGAGGAGAAAGAACCGUGAUGUUCCCUGUUUCUCCAGUAAAGGACUGGCUUUUGCUUGGGCAGAGGUGGUGCUGCUGGGUGUGCAGCUGCCUGGAAUUCUCGGGUGCCAA | 0.94

Set 2 — technique: protein-binding microarray; form: double-stranded DNA, one strand shown; matrix: in vitro; tested at: 2540 nM top; setting: 60-bp whole probe; with: salmon DNA 0.4 mg/ml; baseline: random background probes; reading: higher = stronger binding; constant ends, left off below: GCCTAGCAC … GTCTTGATTCGCTTGACGCTGCTG
Target: Interferon regulatory factor 3, full length, phosphomimetic (IRF3, Homo sapiens, UniProt Q14653, residues 1-427, S386D/S396D/S398D/S402D/T404D/S405D)
Construct (chain): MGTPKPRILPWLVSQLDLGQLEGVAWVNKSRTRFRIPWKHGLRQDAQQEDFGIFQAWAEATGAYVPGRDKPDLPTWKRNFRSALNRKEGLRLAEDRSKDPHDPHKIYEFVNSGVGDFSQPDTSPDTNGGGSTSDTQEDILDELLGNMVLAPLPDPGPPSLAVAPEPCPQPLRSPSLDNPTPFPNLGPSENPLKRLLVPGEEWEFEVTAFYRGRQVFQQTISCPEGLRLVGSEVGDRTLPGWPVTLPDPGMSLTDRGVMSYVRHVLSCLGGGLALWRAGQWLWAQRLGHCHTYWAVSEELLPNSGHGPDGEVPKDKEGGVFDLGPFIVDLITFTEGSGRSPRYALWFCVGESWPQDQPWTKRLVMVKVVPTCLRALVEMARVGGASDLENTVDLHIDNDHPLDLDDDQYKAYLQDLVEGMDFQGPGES
Oligonucleotide | fitted relative affinity [z-score]
GACGATTTCAGTCTCGAGATGTGCTAG | 2.38
GACGGTCTCGGACTGGCGACGTGCTAG | 0.172
TTGAGGTTTTCTCTGGTTCTGTGCTAG | -0.318
GACGGACTGGGTACTGGGGACGTGCTA | -0.793
TAACCTTGAACTTTGGCCTCGTGCTAG | -0.624
GACGGTTTCGATATCGGGACGTGCTAG | 6.44
TTAGGATTGGGTCTCGGTTAGTGCTAG | -0.127
GAGGAACTGAGTATCGAGACGTGCTAG | -0.364
TCATACCTGTATATCTTACTGTGCTAG | 0.428
TTAGGACTGAGTCTCGGTTAGTGCTAG | -0.405
GACGGTTTCGTTATCGGGACGTGCTAG | 6.42
TCATGCTTCTGTATTCAACTGTGCTAG | -0.0482
GACGGTCTCGGTCTCTGGACGTGCTAG | 1.11
TTGGGACTGGACTTTCGGTTAGTGCTA | 0.613
TTAGGTATCGGGACTGGGTCAGTGCTA | 1.19
TTAGGTCTCGGACTGGGTTTGTGCTAG | -0.477
GACGGTCTCCTACTGCTAACGTGCTAG | 1.25
TTATGTCTCGGACTGGGTTAGTGCTAG | -0.179
TTAGGTTTCGGTTTAGGTTAGTGCTAG | 9.39

Set 3 — technique: RNA Bind-n-Seq; form: RNA; matrix: in vitro; tested at: 200 nM; setting: whole 134-nt RNA, ends assumed; with: 150 mM LiCl; baseline: input library; reading: higher = stronger binding; all molecules: 7-deaza-guanosine replaces G
Target: Fragile X messenger ribonucleoprotein 1, C-terminal low-complexity region (Fmr1, Mus musculus, UniProt P35922)
Oligonucleotide | log2 enrichment
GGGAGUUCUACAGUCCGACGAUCUGGCCCUGGUGGCAUGCGGGGAGGAAGAGGUGGCCUCAUGAAUCGUGGUGGUCCCGGUGGAAUGUUCAGAGGUGGCCGUGGUGGAGACAGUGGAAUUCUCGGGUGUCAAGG | -0.253
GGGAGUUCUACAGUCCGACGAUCGUCCUGUGCUACACAUCGUAUGUACCGAAUCGGGGAAAGGGGUUUGGGGAAAAAGGGGAAAGUAUUAUGUUACGCCGUUCGGAUCUGCACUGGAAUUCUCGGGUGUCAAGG | -0.956
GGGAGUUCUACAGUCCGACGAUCUCAAGUCCUGUGCUACACAUCGUAUGUACCGAAUCGUGUGUGUGUGUGUGUGUGUAAAGUAUUAUGUUACGCCGUUCGGAUCUGCACUUCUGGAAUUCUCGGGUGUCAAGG | -0.816
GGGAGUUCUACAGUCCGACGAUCUCAAGUCCUGUGCUACACAUCGUAUGUACCGAAUCGGUGGUUUUUGGAAAAAGGAAAGUAUUAUGUUACGCCGUUCGGAUCUGCACUUCCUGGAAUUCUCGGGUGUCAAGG | -0.647
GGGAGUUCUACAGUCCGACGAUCCUCAAGUCCUGUGCUACACAUCGUAUGUACCGAAUCGGGUUGGGUUGGUUGGGGAAAGUAUUAUGUUACGCCGUUCGGAUCUGCACUUCCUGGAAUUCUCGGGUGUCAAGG | -0.427
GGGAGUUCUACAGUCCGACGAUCUCAAGUCCUGUGCUACACAUCGUAUGUACCGAAUCGGAAAAGGAAAAGGAAAAGGAAAGUAUUAUGUUACGCCGUUCGGAUCUGCACUUCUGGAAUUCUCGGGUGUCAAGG | -0.534
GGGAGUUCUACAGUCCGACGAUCCAAGUCCUGUGCUACACAUCGUAUGUACCGAAUCGGUGGUUUUUUUGGUUUUUGGAAAGUAUUAUGUUACGCCGUUCGGAUCUGCACUUCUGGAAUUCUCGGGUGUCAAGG | -1.18
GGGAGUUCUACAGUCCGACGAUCAGUCCUGUGCUACACAUCGUAUGUACCGAAUCAAACCCAAACCCCCAAAUUUUUAAAAAAGUAUUAUGUUACGCCGUUCGGAUCUGCACUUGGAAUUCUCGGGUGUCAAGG | 1.39

Set 4 — technique: protein binding microarray; form: double-stranded DNA, one strand shown; matrix: in vitro; tested at: not given; baseline: not given; reading: higher = stronger binding
Target: Histone acetyltransferase KAT6A, winged helix 1, GST fusion (KAT6A, Homo sapiens, UniProt Q92794, residues 1-85)
Setting: 8-mer, flanks averaged, mean of 2 arrays, mostly near background
Construct (chain): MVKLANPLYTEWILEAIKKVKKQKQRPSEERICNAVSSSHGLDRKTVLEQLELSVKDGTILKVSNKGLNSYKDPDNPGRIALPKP
Oligonucleotide | E-score
ACGGGGAT | 0.234
AGACCCGA | 0.0875
GTCGCAAC | 0.122
ACGTAAGA | -0.189
GTTATATA | -0.177
GTCAGTAA | -0.0365
CATACTCG | 0.181
ATGTCTGG | -0.162
TAGAGGGA | -0.329
CGGGTCTA | 0.0957
CCCACACC | -0.0683
TAGCAAAA | 0.0221
AGATGAAT | -0.155
ATTACTAA | -0.0475
CTTTCGTC | -0.0896
CACTAACA | -0.175
ATGGTCAG | -0.119
CAGCCGCG | 0.38
CCGCGATA | 0.353
CCCACTGA | -0.314
AGTATTGC | -0.0695

Repeated from above (set 2):
Oligonucleotide | fitted relative affinity [z-score]
GAGGAACTGAGTATCGAGACGTGCTAG | -0.364
TCATACCTGTATATCTTACTGTGCTAG | 0.428
TTAGGACTGAGTCTCGGTTAGTGCTAG | -0.405
GACGGTTTCGTTATCGGGACGTGCTAG | 6.42
TCATGCTTCTGTATTCAACTGTGCTAG | -0.0482
GACGGTCTCGGTCTCTGGACGTGCTAG | 1.11
TTGGGACTGGACTTTCGGTTAGTGCTA | 0.613
TTAGGTATCGGGACTGGGTCAGTGCTA | 1.19
TTAGGTCTCGGACTGGGTTTGTGCTAG | -0.477
